{"data": "Results pooled from the literature", "note": "A part holds a random share of what one study measured. Substitutions count along the parent as printed.", "UniProt Q9Y3S1, sequence (whole entry, looked up)": "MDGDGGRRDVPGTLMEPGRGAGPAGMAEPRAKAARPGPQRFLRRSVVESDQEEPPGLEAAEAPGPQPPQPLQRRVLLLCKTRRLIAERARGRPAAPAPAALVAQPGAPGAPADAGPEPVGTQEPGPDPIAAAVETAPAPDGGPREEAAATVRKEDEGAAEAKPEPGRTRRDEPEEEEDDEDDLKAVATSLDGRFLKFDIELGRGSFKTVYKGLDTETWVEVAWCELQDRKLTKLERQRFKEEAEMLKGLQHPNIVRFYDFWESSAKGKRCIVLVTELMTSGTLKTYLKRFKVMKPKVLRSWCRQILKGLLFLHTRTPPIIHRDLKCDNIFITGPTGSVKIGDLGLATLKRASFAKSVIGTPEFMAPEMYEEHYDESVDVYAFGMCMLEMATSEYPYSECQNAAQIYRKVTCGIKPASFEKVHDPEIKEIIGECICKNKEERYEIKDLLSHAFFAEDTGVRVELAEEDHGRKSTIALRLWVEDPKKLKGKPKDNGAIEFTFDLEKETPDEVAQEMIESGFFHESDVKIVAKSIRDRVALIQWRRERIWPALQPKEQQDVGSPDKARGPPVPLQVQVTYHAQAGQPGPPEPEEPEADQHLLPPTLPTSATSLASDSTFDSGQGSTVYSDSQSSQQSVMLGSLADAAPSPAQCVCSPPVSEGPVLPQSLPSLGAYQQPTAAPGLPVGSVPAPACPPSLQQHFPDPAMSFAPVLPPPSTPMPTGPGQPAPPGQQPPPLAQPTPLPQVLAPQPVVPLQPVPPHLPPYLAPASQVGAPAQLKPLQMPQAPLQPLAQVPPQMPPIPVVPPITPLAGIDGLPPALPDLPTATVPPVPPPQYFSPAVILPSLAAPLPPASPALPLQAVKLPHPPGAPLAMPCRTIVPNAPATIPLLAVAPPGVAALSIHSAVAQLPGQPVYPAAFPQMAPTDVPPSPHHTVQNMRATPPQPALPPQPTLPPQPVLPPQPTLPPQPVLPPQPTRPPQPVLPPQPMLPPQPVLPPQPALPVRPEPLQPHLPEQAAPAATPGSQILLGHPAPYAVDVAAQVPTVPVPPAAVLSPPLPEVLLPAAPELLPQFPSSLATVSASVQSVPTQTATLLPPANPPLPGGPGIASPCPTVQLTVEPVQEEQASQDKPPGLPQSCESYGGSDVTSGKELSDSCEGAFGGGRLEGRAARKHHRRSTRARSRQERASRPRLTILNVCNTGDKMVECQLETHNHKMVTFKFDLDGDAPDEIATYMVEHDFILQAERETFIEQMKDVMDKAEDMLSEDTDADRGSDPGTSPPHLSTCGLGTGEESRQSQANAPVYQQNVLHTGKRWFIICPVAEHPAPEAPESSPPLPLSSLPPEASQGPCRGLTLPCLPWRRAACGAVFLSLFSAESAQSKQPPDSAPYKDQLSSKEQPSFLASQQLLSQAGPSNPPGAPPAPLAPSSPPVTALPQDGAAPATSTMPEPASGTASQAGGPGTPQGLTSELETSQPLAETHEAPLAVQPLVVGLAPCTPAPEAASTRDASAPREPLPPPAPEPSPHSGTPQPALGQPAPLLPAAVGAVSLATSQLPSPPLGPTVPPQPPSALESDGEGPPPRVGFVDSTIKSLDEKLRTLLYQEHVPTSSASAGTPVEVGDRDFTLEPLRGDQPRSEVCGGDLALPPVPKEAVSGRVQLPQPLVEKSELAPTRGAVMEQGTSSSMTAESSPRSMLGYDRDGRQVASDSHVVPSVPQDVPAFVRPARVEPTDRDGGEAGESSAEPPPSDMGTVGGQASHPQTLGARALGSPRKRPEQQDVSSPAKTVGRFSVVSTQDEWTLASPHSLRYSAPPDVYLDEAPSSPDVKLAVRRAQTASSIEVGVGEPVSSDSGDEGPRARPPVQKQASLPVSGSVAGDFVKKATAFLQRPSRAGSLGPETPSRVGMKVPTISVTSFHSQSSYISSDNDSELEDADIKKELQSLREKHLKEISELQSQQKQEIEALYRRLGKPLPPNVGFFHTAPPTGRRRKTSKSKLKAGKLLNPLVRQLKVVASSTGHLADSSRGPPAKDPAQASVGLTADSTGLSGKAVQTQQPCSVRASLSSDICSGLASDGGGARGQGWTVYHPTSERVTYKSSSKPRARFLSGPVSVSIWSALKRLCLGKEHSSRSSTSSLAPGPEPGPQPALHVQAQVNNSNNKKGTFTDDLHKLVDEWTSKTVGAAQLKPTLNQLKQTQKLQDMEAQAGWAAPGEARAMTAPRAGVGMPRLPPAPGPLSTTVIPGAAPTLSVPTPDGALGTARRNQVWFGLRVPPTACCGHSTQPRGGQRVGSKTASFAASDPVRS"}
{"data": "Sample 1", "target": "CCNE2, cyclin fold, Cln2 fusion (human)", "method": "yeast growth competition, sequencing", "matrix": "yeast", "notes": "strong parent motif", "baseline": "not given", "reading": "higher = stronger binding", "parent": "viral docking peptide; KGVKRKLFAEDSS; partner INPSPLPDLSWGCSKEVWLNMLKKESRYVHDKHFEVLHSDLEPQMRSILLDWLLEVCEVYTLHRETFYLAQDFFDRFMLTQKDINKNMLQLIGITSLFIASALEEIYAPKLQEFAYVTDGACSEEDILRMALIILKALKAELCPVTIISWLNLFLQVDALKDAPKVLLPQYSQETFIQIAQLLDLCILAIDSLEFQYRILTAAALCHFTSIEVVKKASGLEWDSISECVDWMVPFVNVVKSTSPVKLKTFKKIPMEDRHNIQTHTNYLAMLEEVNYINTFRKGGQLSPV"}
{"Change": "K6T", "normalised enrichment score": 4.34}
{"Change": "K6C", "normalised enrichment score": 4.02}
{"Change": "L7T", "normalised enrichment score": 0.539}
{"Change": "K6I", "normalised enrichment score": 5.92}
{"Change": "G2C", "normalised enrichment score": 6.76}
{"Change": "L7M", "normalised enrichment score": 0.754}
{"Change": "L7Q", "normalised enrichment score": 0.44}
{"Change": "L7S", "normalised enrichment score": 0.324}
{"data": "Sample 2", "target": "HLA class I histocompatibility antigen, A alpha chain, allele A*26:03 (Homo sapiens, UniProt P04439)", "read-out": "peptide-MHC binding", "molecule type": "peptide", "concentration": "concentration not given"}
{"Sequence": "SDDQLRLLK", "binding": "inactive"}
{"Sequence": "TVGYMYIMK", "binding": "inactive"}
{"Sequence": "GLAEKPNDY", "binding": "inactive"}
{"Sequence": "KVMVICYAY", "binding": "inactive"}
{"Sequence": "EIYRTLYGL", "binding": "inactive"}
{"Sequence": "SQMPPQKIM", "binding": "inactive"}
{"Sequence": "IEVKFHPIL", "binding": "inactive"}
{"Sequence": "DTVLFNAGL", "binding": "inactive"}
{"data": "Sample 3", "target": "UBE2D4 UBC core domain (UniProt Q9Y2X8)", "method": "yeast two-hybrid", "matrix": "yeast", "notes": "mostly zero background", "baseline": "not given", "reading": "higher = stronger interaction", "B1": "TRIM74 RING domain (UniProt Q86UV6); chain SLLELEDWLQCPICLEVFKESLMLQCGHSYCKGCLVSLSYHLDTKVRCPMCWQVVDGSSSLP", "B2": "TRIM68 RING domain (UniProt Q6AZZ1); chain LVEAIVEEVACPICMTFLREPMSIDCGHSFCHSCLSGLWEIPGESQNWGYTCPLCRAPVQPRNLRP", "B3": "ARIH1 RING domain (UniProt Q9Y4X5); chain NTRSSAQDMPCQICYLNYPNSYFTGLECGHKFCMQCWSEYLTTKIMEEGMGQTISCPAHGCDILVDDNTVM", "B4": "RNF10 RING domain (UniProt Q8N5U6); chain VRICSHEVPSCPICLYPPTAAKITRCGHIFCWACILHYLSLSEKTWSKCPICYSSVHKKDLKS", "B5": "CBLL1 RING domain (UniProt Q75N03); chain GEKDDTPVHFCDKCGLPIKIYGRMIPCKHVFCYDCAILHEKKGDKMCPGCSDPVQRIEQCT", "UniProt Q9Y2X8, sequence (whole entry, looked up)": "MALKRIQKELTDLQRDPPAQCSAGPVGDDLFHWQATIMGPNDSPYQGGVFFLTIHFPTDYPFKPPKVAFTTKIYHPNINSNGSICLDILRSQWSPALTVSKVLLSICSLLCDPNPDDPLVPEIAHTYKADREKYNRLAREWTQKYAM"}
{"Sequence": "B1 (TRIM74 RING domain)", "lacZ reporter activity": 0}
{"Sequence": "B2 (TRIM68 RING domain)", "lacZ reporter activity": 0}
{"Sequence": "B3 (ARIH1 RING domain)", "lacZ reporter activity": 0}
{"Sequence": "B4 (RNF10 RING domain)", "lacZ reporter activity": 0}
{"Sequence": "MEEMEEELKCPVCGSFYREPIILPCSHNLCQACARNILVQTPESESPQSHRAAGSGVSDY (TRIM9 RING domain (UniProt Q9C026))", "lacZ reporter activity": 0}
{"Sequence": "GSEEEEIPFRCFICRQAFQNPVVTKCRHYFCESCALEHFRATPRCYICDQPTGGIFNPA (RNF113B RING domain (UniProt Q8IZP6))", "lacZ reporter activity": 0}
{"Sequence": "B5 (CBLL1 RING domain)", "lacZ reporter activity": 0}
{"Sequence": "AAQLLEEKLTCAICLGLYQDPVTLPCGHNFCGACIRDWWDRCGKACPECREPFPDGAELR (TRIM65 RING domain (UniProt Q6PJ69))", "lacZ reporter activity": 0}
{"data": "Mixed results"}
{"SMILES": "CC(C)(C)c1cc(C=C(C#N)C#N)cc(Br)c1O", "target": "Serine/threonine-protein kinase WNK2 (WNK2, Homo sapiens, UniProt Q9Y3S1)", "read-out": "enzyme activity", "action": "inhibitor", "concentration": "0.5 µM", "quantity": "remaining activity", "value": "126%"}
{"note": "Some of these lines once more (sample 2):"}
{"Sequence": "DTVLFNAGL", "binding": "inactive"}
{"Sequence": "IEVKFHPIL", "binding": "inactive"}
